Experimental data gathered from unrelated publications.
Protocols differ between the studies behind these lines. Several values in a cell are separate wells, animals, samples, runs or records. ± marks the error that the study gave.

`CCc1cnc(NC(=O)c2cc(S(=O)(=O)N3CCOCC3)ccc2N(C)C2CCCC2)s1`: “Monocytes absolute count” 886 µL⁻¹ (mouse, blood; 10 mg/kg, 3 doses).
For `C/C(N)=N/C(=N\S(=O)(=O)c1ccc(C(F)(F)F)cc1)N1C[C@H](c2ccccc2)C(c2ccc(Cl)cc2)=N1`, the AUC(0-inf) was 28400 ng·h/mL (beagle dog, plasma; oral, 24 mg/kg).
`CC(C)=CCc1cc(C(=O)/C=C/c2ccc(O)cc2)c(O)cc1O` gave a CLint of 5.28 µL/min/mg (minipig liver microsomes; phase I metabolism).
For `C=Cc1ccccc1[B-]12OC(=O)C(c3ccccc3)=N[N+]1=Cc1ccc(N(CC)CC)cc1O2` (stereo not shown), “fluorescence emission maximum” read 507 nm (toluene).
`C=CC(=O)Nc1cc(Nc2nccc(-c3c[nH]c4ccccc34)n2)c(OC)cc1N(C)CCN(C)C` gave a recovery of 100% (storage stability; human dried blood spot; 10 d, -80 °C, LQC level).
With `Cc1nc(N)nc2c1C(=O)N[C@@H](c1ccc(F)cc1-c1cccc(O[11CH3])n1)C2` the tracer uptake was 14.8 ± 12.7 %ID (ex vivo biodistribution; healthy mice, muscle; 60 min post-injection, baseline, vehicle pre-treatment).
For `CN1CCC[C@]1(C)/C=C/S(=O)(=O)NC(=O)Nc1c2c(cc3c1C(O)CC3)CCC2` (stereo partly shown), the AUC(0-inf) was 541000 ng·h/mL (human, plasma; oral, 100 mg twice daily of parent drug, day 14, metabolite of dosed drug).
`O=C(Nc1cccc(C(=O)N2CCC(c3nc(-c4ccccc4)n[nH]3)CC2)c1)c1ccccc1` has a permeability of 197 ± 81.6 ×10⁻⁶ cm/s (PAMPA; artificial lipid membrane; 30 min).
`COc1cc(N2CCN(C(=O)C3CCCN3)CC2)ccc1Nc1ncc(Cl)c(Nc2ccccc2P(C)(C)=O)n1` (stereo not shown) gave a body weight of 22.9 g and 22.4 g and 23 g and 23.1 g and 25.1 g (nude mice, NCI-H3122 xenograft; oral, dose not given, day 16).
For `CCN(CC)c1ccc2c(c1)O[B-]1(c3ccccc3)OC(=O)C(c3ccccc3)=N[N+]1=C2` (stereo not shown), the fluorescence lifetime was 2.41 ns (toluene).
With `O=C(Nc1cnccc1-c1ccc([18F])nc1)c1ccnc(NC(=O)C2CC2)c1` the mean SUV was 0.311 (ex vivo gamma counting; FVB/NJ mice, both sexes, right kidney; intravenous, 120 min).
For `CC(C)CC(=O)Nc1ccc(C2CCCCC2)cc1`, the hepatic clearance was 41 mL/min/kg (hepatocyte stability; cryopreserved rat hepatocytes; 1 µM).
`COc1cccc(OC)c1-c1cc(C(=O)NC2(C(=O)O)C3CC4CC(C3)CC2C4)nn1-c1ccc(C(=O)NCCNC(=O)[C@H](CCCCNC(=O)[C@H](CC(C)C)NC(=O)C2OC2C(=O)O)NC(=O)CN2CCN(CC(=O)[O-])CCN(CC(=O)[O-])CCN(CC(=O)[O-])CC2)cc1C(C)C.[177Lu+3]` (mixture of isomers) gave a tissue uptake of 3.6 %ID/g (mouse, HT-29 xenograft, HT-29 tumour; 72 h post injection).
For `C=C(NC(=O)c1csc(-c2nc3c(cc2O)-c2nc(cs2)C(=O)NC(C(C)O)C(=O)NC(=C(C)OC)c2nc(cs2)C(=O)NC2c4nc(cs4)C(=O)NC(COC(=O)c4c5c6c(cccc6n4O)COC(=O)C(OC4CC(C)(O)C(N(C)C)C(C)O4)C2OC5)c2nc-3cs2)n1)C(N)=O` (stereo not shown), the half-life was 6.14 h (male Sprague-Dawley rat, plasma; intravenous, 18 mg/kg, single dose, infusion).
For `CC[C@H](C)[C@@H]1NC(=O)[C@H](Cc2ccc(O)cc2)NC(=O)CCCSC[C@@H](C(=O)N(CC(=O)N[C@@H](CC(C)C)C(=O)NCC(N)=O)Cc2ccc(F)cc2)NC(=O)[C@H](CC(N)=O)NC(=O)[C@H](CCC(N)=O)NC1=O`, “AE leading to discontinuation” read 0% (human; intranasal, 5 µg single dose).
`Cc1cc(-c2ccc(C(=O)[C@@H]3CCCC[C@H]3C(=O)Nc3cnn4c3C(=O)NCC4)cc2)[nH]n1` — result for “cumulative recovery of radioactivity”: 5.37% (human, urine; oral, 200 mg, 0-24 h; relative to: dose).
For `Cn1ncc2cc(CN3CCC(F)(F)C(COc4cccc(F)c4)C3)ccc21` (stereo not shown), the fu was 0.002 (equilibrium dialysis; mouse plasma).
Under “protonation constant (log)”, `CC1(N(CC(=O)O)CC(=O)O)CN(CC(=O)O)CCN(CC(=O)O)C1` is recorded as 3.86 (pH-potentiometry, item: logK3H; 0.15 M NaClO4; 25 °C).
The AUC of `OCCn1nc(-c2ccccc2)c2c(Cl)c(-c3ccccc3)nnc21` is reported as 8.55 µM·h (mouse juvenile P6, plasma; intraperitoneal, 15 mg/kg).
With `COc1ccc2c(c1)CN(C(=O)CCN1CCC(Cc3ccccc3)CC1)CCS2` the fu was 0.072 (dog plasma; 750 ng/mL).
`C=Cc1ccc([B-]23OC(=O)C(c4ccccc4)=N[N+]2=Cc2ccc(N(CC)CC)cc2O3)cc1` (stereo not shown) — result for “fluorescence emission maximum”: 508 nm (toluene).
`COC1C=COC2(C)Oc3c(C)c(O)c4c(c3C2=O)C2=NC3(CCN(CC(C)C)CC3)NC2=C(NC(=O)C(C)=CC=CC(C)C(O)C(C)C(O)C(C)C(OC(=O)Nc2cnccn2)C1C)C4=O` (stereo not shown) gave a fAUC/MIC ratio of 88.8 (CD-1 mouse female, plasma; oral, 10 mg/kg).
`CC[C@H](C)[C@H](NC(=O)[C@H](CCC(N)=O)NC(=O)[C@@H](NC(=O)[C@@H]1CCCN1[C@@H]1CN(C(=O)[C@H](CCCCN)NC(=O)[C@H](CC(N)=O)NC(=O)[C@@H](NC(=O)[C@@H](NC(=O)[C@H](CCC(N)=O)NC(=O)[C@@H](N)C(C)C)[C@@H](C)CC)[C@@H](C)CC)CC[C@H]1NS(=O)(=O)c1ccc(C)cc1)C(C)C)C(=O)N[C@H](C(=O)N[C@@H](Cc1ccc(O)cc1)C(=O)N[C@@H](CCCCN)C(N)=O)C(C)C` has a helix content of 4.6% (CD spectroscopy; 20 mM phosphate buffer; 125 µM, 37 °C).
For `CCn1cc(-c2cc(Cn3ccnc3)cc3c2CCN([C@H](c2cc(OC)ccn2)C2CC2)C3=O)c(C(F)(F)F)n1`, the AUC extrapolated was 0.2% (CD-1 mouse, male, plasma; intravenous, 3 mg/kg).
The hepatic clearance of `O=C(CC1CCOCC1)Nc1ccc([C@H]2[C@@H](F)[C@@H](F)C[C@@H](F)[C@H]2F)cc1` is reported as 4.9 mL/min/kg (liver microsome stability; cynomolgus liver microsomes; 1 µM).
With `Cc1nn(-c2nc3c(F)cc(F)cc3s2)c(O)c1C(c1ccc(C(F)(F)F)cc1)c1c(C)nn(-c2nc3c(F)cc(F)cc3s2)c1O` the Tlast was 24 h (ICR mouse, plasma; intraperitoneal, 10 mg/kg).
`COc1cccc(OC)c1-c1cc(C(=O)NC2(C(=O)O)C3CC4CC(C3)CC2C4)nn1-c1ccc(C(=O)N(C)CCOCCN(C)C(=O)[C@H](CCCCNC(=O)[C@H](CC(C)C)NC(=O)C2OC2C(=O)O)NC(=O)CN2CCN(CC(=O)[O-])CCN(CC(=O)[O-])CCN(CC(=O)[O-])CC2)cc1C(C)C.[177Lu+3]` (mixture of isomers) has a tissue uptake of 0.81 %ID/g (mouse, HT-29 xenograft, spleen; 4 h post injection).
`O=C(NC1CCC(F)(F)CC1)C(c1cncnc1)N(C(=O)C(F)Cl)c1ccc(OC(F)(F)F)cc1` (stereo not shown) gave a CLint of < 9.6 µL/min/mg (mouse liver microsomes; concentration not given, pH 7.4).
For `O=C(CN1CN(c2ccccc2)C2(CCN(C(=O)c3ccc4[nH]ncc4n3)CC2)C1=O)NCC(F)(F)F`, the CLint was 28 µL/min/mg protein (human liver microsomes).
`O=C(Nc1cnccc1-c1ccc([18F])cc1)c1ccnc(NC(=O)C2CC2)c1` has an SUV of 0.36 (FVB/NJ mice (both sexes), spleen; intravenous, dose not given, 120 min, with: tariquidar 15 mg/kg i.v. pre-dose).
`O=C(O)c1ccc(/C=C2\SC(=S)N(Cc3cccc(C(F)(F)F)c3)C2=O)cc1` has a hepatic clearance of < 4.7 mL/min/kg (human liver microsomes; 1 µM).
The tumour-to-bone ratio of `COc1cccc(OC)c1-c1cc(C(=O)NC2(C(=O)O)C3CC4CC(C3)CC2C4)nn1-c1ccc(C(=O)N(C)CCOCCOCCN(C)C(=O)[C@H](CCCCNC(=O)[C@H](CC(C)C)NC(=O)C2OC2C(=O)O)NC(=O)CN2CCN(CC(=O)[O-])CCN(CC(=O)[O-])CCN(CC(=O)[O-])CC2)cc1C(C)C.[177Lu+3]` (mixture of isomers) is reported as 4.95 (mouse, HT-29 xenograft; 72 h post injection, biodistribution; relative to: tumour over bone uptake).
`CCCCN1C(=O)c2cccc3c(NCCCN4CCOCC4)ccc(c23)C1=O` gave a fluorescence lifetime of 6.2 ns (DMF).
`O=C(c1ccc(C2CCCCC2)cc1)N1CCCC1` gave a hepatic clearance of 3.9 mL/min/kg (liver microsome stability; human liver microsomes; 1 µM, without NADPH).
With `C=C[C@]1(C)C[C@@H](OC(=O)CSc2ccc(NC(=O)c3ccco3)cc2)[C@]2(C)[C@H](C)CC[C@]3(CCC(=O)[C@H]32)[C@@H](C)[C@@H]1O` the elimination half-life was 4.21 h (M. gallisepticum-infected chickens, plasma; intramuscular, 5 mg/kg single dose).
The hepatic clearance of `CNC(=O)c1ccc([C@H]2[C@@H](F)[C@@H](F)C[C@@H](F)[C@H]2F)cc1` is reported as 10 mL/min/kg (hepatocyte stability; cryopreserved rat hepatocytes; 1 µM).
For `COC(=O)[C@@]1(C)C=C(C(=O)Nc2cccc(C(=O)Nc3ccc(Nc4nccc(-c5cccnc5)n4)c(C)c3)c2)C(=O)CC1`, the compound remaining was 55.3% (Wistar rat, male, plasma; 1 µM, 10 min).
`O=C(NS(=O)(=O)c1cccs1)c1cc2ccccc2n1Cc1ccc(Br)c2ccccc12` gave a body weight of 38.8 g and 31.4 g and 35.6 g and 36.6 g and 33 g and 37.8 g (KM mouse, chronic hyperuricaemia model; dose not given, day 18).
`C=CC(=O)Nc1cc(Nc2nccc(-c3cn(C)c4ccccc34)n2)c(OC)cc1N(C)CCNC` has a percentage recovery of 20.1% (storage stability; human plasma samples; 30 d, -80 °C, MQC level; relative to: nominal concentration).
With `O=C(NCc1cccc(Cl)c1)c1ccc(C2CCCCC2)cc1` the hepatic clearance was 76 mL/min/kg (hepatocyte stability; cryopreserved mouse hepatocytes; 1 µM).
`OCCCN1CC[C@@H]2C[C@H]1c1cc(-c3ccc(C(F)(F)F)cc3)ccc12` has a t1/2 of 11.4 h (brain; ip, concentration not given).
For `O=C(Nc1ccc(C2CCCCC2)cc1)C1(N2CCOCC2)CC1`, the hepatic clearance was 36 mL/min/kg (liver microsome stability; cynomolgus liver microsomes; 1 µM).
`Cc1ccc(OCC(=O)N(Cc2cccs2)c2ccn[nH]2)cc1` has a remaining compound of 77.2% (male Gottingen pig liver microsomes; 10 µM, 60 min, without NADPH).
The hepatic clearance of `O=C(c1ccc([C@H]2[C@@H](F)[C@@H](F)C[C@@H](F)[C@H]2F)cc1)N1CCCC1` is reported as 47 mL/min/kg (hepatocyte stability; cryopreserved rat hepatocytes; 1 µM).
`COc1cccc(OC)c1-c1cc(C(=O)NC2(C(=O)O)C3CC4CC(C3)CC2C4)nn1-c1ccc(C(=O)N(C)CCCN(C)C(=O)[C@H](CCCCNC(=O)[C@H](CC(C)C)NC(=O)C2OC2C(=O)O)NC(=O)CN2CCN(CC(=O)[O-])CCN(CC(=O)[O-])CCN(CC(=O)[O-])CC2)cc1C(C)C.[177Lu+3]` (mixture of isomers) has a tumour-to-blood ratio of 50.1 (mouse, HT-29 xenograft; 72 h post injection, biodistribution; relative to: tumour over blood uptake).
With `O=C(N1CCCCC1)C12CC(c3ccccc3)(C1)C2(F)F` the compound remaining was 84% (metabolic stability; human, liver microsomes; 2 µM, 25 min, pH 7.4).
Under “photodecomposition quantum yield”, `CCCNC(=O)[C@H]1O[C@@H]1C(=O)N[C@H](C(=O)N1CCC[C@H]1C(=O)OCC1=C2C(C)=CC(C)=[N+]2[B-](CC)(CC)n2c(C)cc(C)c21)[C@@H](C)CC` is recorded as 0.56 ± 0.02% (Nd:YAG laser irradiation; methanol; irradiation at 532 nm).
`CCCCCCCOc1ccc(CC[C@](N)(CO)COP(=O)(O)O)cc1C(F)(F)F` gave an AUCτ of 80.2 ng·h/mL (healthy men, plasma; oral, 0.25 mg once daily, day 21, fed state).
`O=C(CN1CCOCC1)Nc1ccc([C@H]2[C@@H](F)[C@@H](F)C[C@@H](F)[C@H]2F)cc1` gave a hepatic clearance of 30 mL/min/kg (liver microsome stability; mouse liver microsomes; 1 µM).
